Measurements of several laboratories.
Each line is one published result; not all experiments were run side by side. Numbers after ± are the reported error.
ALB: Albumin (ALB, Bos taurus, UniProt P02769)

Protein sequences, listed by entry. Tags and fused reporters are not part of them. Residues count along the entry.
UniProt P02769, 25-607 limits assumed: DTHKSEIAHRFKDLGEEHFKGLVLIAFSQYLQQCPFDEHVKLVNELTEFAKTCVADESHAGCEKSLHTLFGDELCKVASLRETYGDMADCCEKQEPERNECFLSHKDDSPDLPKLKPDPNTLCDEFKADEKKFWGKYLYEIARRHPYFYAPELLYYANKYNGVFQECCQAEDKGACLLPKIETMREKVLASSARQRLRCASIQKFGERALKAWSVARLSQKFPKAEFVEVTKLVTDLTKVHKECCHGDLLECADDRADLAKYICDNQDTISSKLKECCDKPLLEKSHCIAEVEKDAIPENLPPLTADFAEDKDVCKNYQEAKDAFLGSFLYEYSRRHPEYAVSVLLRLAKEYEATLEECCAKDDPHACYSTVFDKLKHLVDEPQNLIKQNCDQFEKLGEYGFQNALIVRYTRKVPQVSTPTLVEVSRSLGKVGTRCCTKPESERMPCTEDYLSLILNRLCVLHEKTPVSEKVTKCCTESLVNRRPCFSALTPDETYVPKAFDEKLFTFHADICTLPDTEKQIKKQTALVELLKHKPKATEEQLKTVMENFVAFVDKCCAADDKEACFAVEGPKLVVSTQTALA
UniProt Q12809, whole entry: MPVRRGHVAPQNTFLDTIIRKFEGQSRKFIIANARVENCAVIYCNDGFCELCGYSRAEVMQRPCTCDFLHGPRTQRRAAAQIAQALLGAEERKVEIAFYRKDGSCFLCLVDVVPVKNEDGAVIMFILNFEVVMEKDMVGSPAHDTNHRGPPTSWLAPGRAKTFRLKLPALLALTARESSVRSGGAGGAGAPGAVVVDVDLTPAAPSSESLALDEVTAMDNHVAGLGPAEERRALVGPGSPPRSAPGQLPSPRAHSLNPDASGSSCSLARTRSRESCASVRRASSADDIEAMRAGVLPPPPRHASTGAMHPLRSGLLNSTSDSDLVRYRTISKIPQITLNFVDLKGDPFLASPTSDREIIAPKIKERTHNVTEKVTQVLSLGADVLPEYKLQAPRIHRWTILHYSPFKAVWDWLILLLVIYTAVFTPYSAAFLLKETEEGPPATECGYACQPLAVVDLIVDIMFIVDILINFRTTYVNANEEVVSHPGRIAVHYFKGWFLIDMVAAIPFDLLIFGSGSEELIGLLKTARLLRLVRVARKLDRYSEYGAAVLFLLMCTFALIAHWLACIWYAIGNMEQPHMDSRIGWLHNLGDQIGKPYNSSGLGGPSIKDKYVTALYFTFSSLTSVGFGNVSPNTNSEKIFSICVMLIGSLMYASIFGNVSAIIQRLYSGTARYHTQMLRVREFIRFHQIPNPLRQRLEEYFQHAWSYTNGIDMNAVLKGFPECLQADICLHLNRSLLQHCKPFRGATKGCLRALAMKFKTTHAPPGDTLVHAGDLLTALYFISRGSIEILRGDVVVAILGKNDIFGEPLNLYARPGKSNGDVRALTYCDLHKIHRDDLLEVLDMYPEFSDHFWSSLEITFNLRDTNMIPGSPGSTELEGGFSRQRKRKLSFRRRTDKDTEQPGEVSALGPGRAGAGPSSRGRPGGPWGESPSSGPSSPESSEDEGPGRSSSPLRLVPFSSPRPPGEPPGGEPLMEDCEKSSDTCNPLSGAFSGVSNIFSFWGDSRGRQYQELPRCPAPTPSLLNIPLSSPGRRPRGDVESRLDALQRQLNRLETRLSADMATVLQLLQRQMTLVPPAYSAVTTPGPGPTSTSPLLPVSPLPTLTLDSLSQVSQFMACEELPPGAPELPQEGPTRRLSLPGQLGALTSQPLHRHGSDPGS
UniProt P08183, whole entry: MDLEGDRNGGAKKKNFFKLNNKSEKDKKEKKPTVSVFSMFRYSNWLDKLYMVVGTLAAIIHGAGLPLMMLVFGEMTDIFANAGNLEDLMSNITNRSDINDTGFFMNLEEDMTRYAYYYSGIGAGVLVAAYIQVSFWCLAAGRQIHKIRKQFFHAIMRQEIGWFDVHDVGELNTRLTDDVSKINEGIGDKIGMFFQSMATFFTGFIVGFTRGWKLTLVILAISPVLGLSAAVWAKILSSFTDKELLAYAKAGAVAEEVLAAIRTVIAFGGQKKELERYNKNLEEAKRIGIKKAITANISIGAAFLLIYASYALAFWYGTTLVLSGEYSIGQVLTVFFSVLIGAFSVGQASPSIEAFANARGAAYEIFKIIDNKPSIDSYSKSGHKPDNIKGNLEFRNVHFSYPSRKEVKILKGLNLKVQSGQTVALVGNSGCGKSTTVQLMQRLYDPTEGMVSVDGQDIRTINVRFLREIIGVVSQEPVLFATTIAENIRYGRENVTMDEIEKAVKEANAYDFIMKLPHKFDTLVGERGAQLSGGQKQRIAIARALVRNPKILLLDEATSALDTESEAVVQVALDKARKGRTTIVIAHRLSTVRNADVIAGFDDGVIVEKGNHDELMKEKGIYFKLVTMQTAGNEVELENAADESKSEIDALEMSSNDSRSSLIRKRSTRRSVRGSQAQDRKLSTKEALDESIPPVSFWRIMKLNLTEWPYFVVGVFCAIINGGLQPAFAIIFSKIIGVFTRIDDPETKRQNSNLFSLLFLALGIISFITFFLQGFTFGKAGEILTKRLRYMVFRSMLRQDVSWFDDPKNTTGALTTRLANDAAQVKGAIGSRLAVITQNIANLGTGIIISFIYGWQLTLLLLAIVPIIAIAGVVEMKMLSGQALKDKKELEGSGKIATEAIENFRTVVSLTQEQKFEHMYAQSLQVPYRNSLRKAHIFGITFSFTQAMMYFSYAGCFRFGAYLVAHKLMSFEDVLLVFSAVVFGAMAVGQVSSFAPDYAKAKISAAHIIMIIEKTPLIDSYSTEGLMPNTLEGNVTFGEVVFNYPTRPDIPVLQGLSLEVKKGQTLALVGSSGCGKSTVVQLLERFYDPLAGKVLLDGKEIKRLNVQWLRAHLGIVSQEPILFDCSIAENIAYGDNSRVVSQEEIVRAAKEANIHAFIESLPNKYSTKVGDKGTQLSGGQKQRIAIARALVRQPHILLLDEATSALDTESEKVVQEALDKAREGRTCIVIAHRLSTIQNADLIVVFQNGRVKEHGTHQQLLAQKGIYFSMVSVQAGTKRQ
UniProt P08684, whole entry: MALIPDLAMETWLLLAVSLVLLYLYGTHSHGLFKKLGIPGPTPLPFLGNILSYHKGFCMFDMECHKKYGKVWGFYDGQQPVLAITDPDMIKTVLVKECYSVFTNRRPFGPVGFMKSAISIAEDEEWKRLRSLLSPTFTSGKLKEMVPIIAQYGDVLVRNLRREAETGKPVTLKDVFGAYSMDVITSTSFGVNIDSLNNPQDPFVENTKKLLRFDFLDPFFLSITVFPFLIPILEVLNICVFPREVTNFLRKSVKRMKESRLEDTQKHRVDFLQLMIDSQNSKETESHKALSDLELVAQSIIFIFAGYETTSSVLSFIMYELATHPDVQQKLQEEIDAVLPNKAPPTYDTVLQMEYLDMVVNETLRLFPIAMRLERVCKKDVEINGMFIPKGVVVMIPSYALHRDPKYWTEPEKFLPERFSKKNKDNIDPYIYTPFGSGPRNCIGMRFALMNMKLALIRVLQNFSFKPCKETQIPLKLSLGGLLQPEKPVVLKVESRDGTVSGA
UniProt P05177, whole entry: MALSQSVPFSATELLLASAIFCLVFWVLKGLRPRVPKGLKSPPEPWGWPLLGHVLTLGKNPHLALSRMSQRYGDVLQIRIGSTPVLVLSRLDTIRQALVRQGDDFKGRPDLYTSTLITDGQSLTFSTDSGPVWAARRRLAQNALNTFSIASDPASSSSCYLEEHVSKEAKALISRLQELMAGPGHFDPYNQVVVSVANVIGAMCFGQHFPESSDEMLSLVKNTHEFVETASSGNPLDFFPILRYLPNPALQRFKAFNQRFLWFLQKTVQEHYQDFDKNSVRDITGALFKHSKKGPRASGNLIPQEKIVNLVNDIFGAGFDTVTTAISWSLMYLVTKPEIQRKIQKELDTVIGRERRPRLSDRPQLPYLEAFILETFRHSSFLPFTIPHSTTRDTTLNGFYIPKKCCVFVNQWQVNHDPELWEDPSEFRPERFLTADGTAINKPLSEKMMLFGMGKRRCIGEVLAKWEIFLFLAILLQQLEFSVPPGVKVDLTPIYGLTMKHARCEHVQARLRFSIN

`CC(C)[C@@H](CN1CCC(C)(c2cccc(O)c2)CC1)NC(=O)[C@H]1Cc2ccc(O)cc2CN1` has a Ki of > 10 µM (KCNH2 (Homo sapiens, UniProt Q12809); radioligand binding; hERG-expressing membranes; 60 min, pH 7.4, with: [3H]astemizole).
For `c1ccc(N2CCN(c3nc4cc5c(cc4s3)OCCO5)CC2)cc1`, the IC50 was 38.5 µM (ALB; binding, fluorescence quenching; pH 7.4).
For `zidovudine`, the CC50 was 14.3 µM (CCRF-CEM; cytotoxicity).
The intact probe of `Cc1cn(CC(=O)N(CCNC(=O)CN(CCNC(=O)CN(CCNC(=O)CN(CCNC(=O)CN(CCNC(=O)CN(CCNC(=O)CN(CCNC(=O)CN(CCNC(=O)CN(CCNC(=O)CN(CCNC(=O)COCCOCCNC(=O)COCCOCCNC(=O)[C@H](CNC(=O)[C@H](CNC(=O)[C@H](CNC(=O)[C@H](CNC(=O)COCCOCCNC(=O)CN2CCN(CC(=O)O)CCN(CC(=O)O)CCN(CC(=O)O)CC2)NC(=O)COCCOCCNC(=O)CN2CCN(CC(=O)O)CCN(CC(=O)O)CCN(CC(=O)O)CC2)NC(=O)[C@H](CNC(=O)COCCOCCNC(=O)CN2CCN(CC(=O)O)CCN(CC(=O)O)CCN(CC(=O)O)CC2)NC(=O)COCCOCCNC(=O)CN2CCN(CC(=O)O)CCN(CC(=O)O)CCN(CC(=O)O)CC2)NC(=O)[C@H](CNC(=O)[C@H](CNC(=O)COCCOCCNC(=O)CN2CCN(CC(=O)O)CCN(CC(=O)O)CCN(CC(=O)O)CC2)NC(=O)COCCOCCNC(=O)CN2CCN(CC(=O)O)CCN(CC(=O)O)CCN(CC(=O)O)CC2)NC(=O)[C@H](CNC(=O)COCCOCCNC(=O)CN2CCN(CC(=O)O)CCN(CC(=O)O)CCN(CC(=O)O)CC2)NC(=O)COCCOCCNC(=O)CN2CCN(CC(=O)O)CCN(CC(=O)O)CCN(CC(=O)O)CC2)NC(=O)[C@H](CNC(=O)[C@H](CNC(=O)[C@H](CNC(=O)COCCOCCNC(=O)CN2CCN(CC(=O)O)CCN(CC(=O)O)CCN(CC(=O)O)CC2)NC(=O)COCCOCCNC(=O)CN2CCN(CC(=O)O)CCN(CC(=O)O)CCN(CC(=O)O)CC2)NC(=O)[C@H](CNC(=O)COCCOCCNC(=O)CN2CCN(CC(=O)O)CCN(CC(=O)O)CCN(CC(=O)O)CC2)NC(=O)COCCOCCNC(=O)CN2CCN(CC(=O)O)CCN(CC(=O)O)CCN(CC(=O)O)CC2)NC(=O)[C@H](CNC(=O)[C@H](CNC(=O)COCCOCCNC(=O)CN2CCN(CC(=O)O)CCN(CC(=O)O)CCN(CC(=O)O)CC2)NC(=O)COCCOCCNC(=O)CN2CCN(CC(=O)O)CCN(CC(=O)O)CCN(CC(=O)O)CC2)NC(=O)[C@H](CNC(=O)COCCOCCNC(=O)CN2CCN(CC(=O)O)CCN(CC(=O)O)CCN(CC(=O)O)CC2)NC(=O)COCCOCCNC(=O)CN2CCN(CC(=O)O)CCN(CC(=O)O)CCN(CC(=O)O)CC2)C(=O)Cn2cnc3c(=O)[nH]c(N)nc32)C(=O)Cn2ccc(N)nc2=O)C(=O)Cn2ccc(N)nc2=O)C(=O)Cn2cnc3c(N)ncnc32)C(=O)Cn2cc(C)c(=O)[nH]c2=O)C(=O)Cn2ccc(N)nc2=O)C(=O)Cn2cnc3c(N)ncnc32)C(=O)Cn2cnc3c(=O)[nH]c(N)nc32)C(=O)Cn2ccc(N)nc2=O)CC(=O)NCCN(CC(=O)NCCN(CC(=O)NCCOCCOCC(=O)N[C@@H]2CSSC[C@H](C(N)=O)NC(=O)[C@@H](CCCCN)NC(=O)[C@@H](CO)NC2=O)C(=O)Cn2ccc(N)nc2=O)C(=O)Cn2ccc(N)nc2=O)c(=O)[nH]c1=O` is reported as > 99% (radio-HPLC; mouse, ASPC1 xenograft, urine; intravenous, 3.5 h; baseline: urine radioactivity).
The fold stimulation of `CO[C@]12CC[C@@]3(C[C@@H]1C(C)(C)O)[C@H]1Cc4ccc(O)c5c4[C@@]3(CCN1CC1CC1)[C@H]2O5` is reported as -0.94 ± 0.7 fold (ABCB1 (Homo sapiens, UniProt P08183); P-gp ATPase activity; 25 µM, 40 min; baseline: basal activity, negative means inhibition).
The revertants of `O=C(Nc1ccccc1)c1cc([N+](=O)[O-])ccc1Cl` is reported as 309 ± 23 revertants/plate (Salmonella typhimurium; Ames plate incorporation; TA98; 1500 µg/plate, without metabolic activation).
Under “clinically relevant dose”, `CC#C/C(=N\OC[C@H]1COCCN1)c1ccc2ncnc(Nc3ccc(OCc4cccc(F)c4)c(Cl)c3)c2c1` is recorded as 50 to 100 mg/kg (nude mouse; oral).
`CSCC[C@@H](C=O)NC(=O)[C@H](CC(C)C)NC(=O)[C@H](CC(C)C)NC(C)=O` has a CC50 of > 100 µM (A549; neutral red uptake; 48 h).
The solubility of `CCCCCCCCCCCCCCCC(=O)NCCCC[C@H](NC(=O)CNC(=O)[C@H](CO)NC(=O)CNC(=O)[C@H](CCC(N)=O)NC(=O)[C@H](Cc1c[nH]cn1)NC(=O)[C@H](Cc1c[nH]c2ccccc12)NC(=O)[C@H](CC(N)=O)NC(=O)CNC(=O)[C@@H](NC(=O)[C@H](CO)NC(=O)[C@H](CC(=O)O)NC(=O)[C@H](CC(C)C)NC(=O)[C@@H](NC(=O)[C@H](CCCCN)NC(=O)[C@H](CC(N)=O)NC(=O)[C@H](CO)NC(=O)[C@H](CCCNC(=N)N)NC(=O)[C@H](CCCNC(=N)N)NC(=O)[C@@H](NC(=O)[C@H](Cc1c[nH]c2ccccc12)NC(=O)[C@H](CCC(=O)O)NC(=O)[C@H](CCCCN)NC(=O)[C@H](CO)NC(=O)[C@H](CCC(=O)O)NC(=O)[C@H](CCC(=O)O)NC(=O)[C@H](CC(C)C)NC(=O)[C@H](CC(=O)O)NC(=O)[C@H](CO)NC(=O)[C@H](CCCCN)NC(=O)[C@@H](NC(=O)[C@H](CCCCN)NC(=O)[C@H](CC(N)=O)NC(=O)[C@H](CC(C)C)NC(=O)[C@@H](NC(=O)[C@@H](NC(=O)[C@H](CO)NC(=O)[C@@H](NC(=O)[C@H](CC(=O)O)NC(=O)[C@@H](NC(=O)[C@@H]1CCCN1C(=O)[C@H](CC(=O)O)NC(=O)[C@H](CC(C)C)NC(=O)[C@H](C)NC(=O)[C@@H](N)C(C)C)[C@@H](C)CC)[C@@H](C)CC)[C@@H](C)CC)C(C)C)[C@@H](C)CC)[C@@H](C)CC)[C@@H](C)CC)[C@@H](C)CC)C(=O)O` is reported as 7520 ± 410 µg/mL (water).
For `Cc1ccc(CCNC(=O)c2cnn3c(O)c(Cc4cc(C)ccc4C)c(C)nc23)cc1`, the particle size was 7.1 nm (dynamic light scattering; assay buffer; 40 µM, with Tween 20).
`CC(=O)N1C[C@@H](COP(=O)(N(C)C)N2C[C@@H](COP(=O)(N(C)C)N3C[C@@H](COP(=O)(N(C)C)N4C[C@@H](COP(=O)(N(C)C)N5C[C@@H](COP(=O)(N(C)C)N6C[C@@H](COP(=O)(N(C)C)N7C[C@@H](COP(=O)(N(C)C)N8C[C@@H](COP(=O)(N(C)C)N9C[C@@H](COP(=O)(N(C)C)N%10C[C@@H](COP(=O)(N(C)C)N%11C[C@@H](COP(=O)(N(C)C)N%12C[C@@H](COP(=O)(N(C)C)N%13C[C@@H](COP(=O)(N(C)C)N%14C[C@@H](COP(=O)(N(C)C)N%15C[C@@H](COP(=O)(N(C)C)N%16C[C@@H](COP(=O)(N(C)C)N%17C[C@@H](COP(=O)(N(C)C)N%18C[C@@H](COP(=O)(N(C)C)N%19C[C@@H](COP(=O)(N(C)C)N%20C[C@@H](COP(=O)(N(C)C)N%21C[C@@H](COP(=O)(N(C)C)N%22C[C@@H](COP(=O)(N(C)C)N%23C[C@@H](COP(=O)(N(C)C)N%24CCN(C(=O)CCCN%25C(=O)CC(SC[C@H](NC(=O)[C@H](CCCNC(=N)N)NC(=O)[C@H](CCCNC(=N)N)NC(=O)[C@H](CCCNC(=N)N)NC(=O)[C@H](CCCNC(=N)N)NC(=O)[C@H](Cc%26ccccc%26)NC(=O)[C@H](Cc%26ccccc%26)NC(=O)[C@H](CCCNC(=N)N)NC(=O)[C@H](CCCNC(=N)N)NC(=O)[C@H](CCCNC(=N)N)NC(=O)[C@H](CCCNC(=N)N)NC(=O)[C@@H](N)CCCNC(=N)N)C(N)=O)C%25=O)CC%24)O[C@@H](n%24cnc%25c(=O)[nH]c(N)nc%25%24)C%23)O[C@@H](n%23cc(C)c(=O)[nH]c%23=O)C%22)O[C@@H](n%22ccc(N)nc%22=O)C%21)O[C@@H](n%21cnc%22c(N)ncnc%22%21)C%20)O[C@@H](n%20cc(C)c(=O)[nH]c%20=O)C%19)O[C@@H](n%19ccc(N)nc%19=O)C%18)O[C@@H](n%18cc(C)c(=O)[nH]c%18=O)C%17)O[C@@H](n%17cc(C)c(=O)[nH]c%17=O)C%16)O[C@@H](n%16cnc%17c(=O)[nH]c(N)nc%17%16)C%15)O[C@@H](n%15ccc(N)nc%15=O)C%14)O[C@@H](n%14cnc%15c(=O)[nH]c(N)nc%15%14)C%13)O[C@@H](n%13ccc(N)nc%13=O)C%12)O[C@@H](n%12ccc(N)nc%12=O)C%11)O[C@@H](n%11cnc%12c(N)ncnc%12%11)C%10)O[C@@H](n%10cc(C)c(=O)[nH]c%10=O)C9)O[C@@H](n9cc(C)c(=O)[nH]c9=O)C8)O[C@@H](n8cc(C)c(=O)[nH]c8=O)C7)O[C@@H](n7cc(C)c(=O)[nH]c7=O)C6)O[C@@H](n6cc(C)c(=O)[nH]c6=O)C5)O[C@@H](n5cnc6c(=O)[nH]c(N)nc65)C4)O[C@@H](n4cc(C)c(=O)[nH]c4=O)C3)O[C@@H](n3cnc4c(=O)[nH]c(N)nc43)C2)O[C@@H](n2cnc3c(=O)[nH]c(N)nc32)C1` (some centres unmarked) has a viability of 96% (BCBL1 cells; 16 µM; baseline: mock-treated).
For `C=C[C@@H]1[C@H]2CCC[C@]1(c1cccc(O)c1)CCN2CCc1ccccc1`, the half-life was 1.1 min (mouse liver microsomes 0.5 mg/mL; 1 µM, pH 7.4, with: NADPH).
`CCOc1ccc2cc(-c3nn(CC4CCN(C)CC4)c4ncnc(N)c34)ccc2n1` gave an IC50 of > 100 µM (Cytochrome P450 3A4 (CYP3A4, Homo sapiens, UniProt P08684); inhibitor).
With `Cc1ccc2nc(-c3ccc4nc(-c5ccc(NC(=O)c6cccnc6)cc5)sc4c3)sc2c1S(=O)(=O)O` the solubility was > 110 µM (MOPS buffer, DMSO 2%; pH 6.5).
For `COc1ccc2[nH]cc(CCNC(=O)[C@H](Cc3ccncc3)NC(=O)[C@H](Cc3ccc(Cl)cc3)NC(=O)[C@H](Cc3c[nH]c4ccc(O)cc34)NC(=O)CCCN)c2c1`, toxicity read “not toxic” (SOD1(G93A) mice; intraperitoneal, 30 mg/kg daily, several weeks).
With `c1ccc(N2CCN(c3nc4cc5c(cc4s3)OCO5)CC2)cc1` the IC50 was 95.1 µM (ALB; binding, fluorescence quenching; pH 7.4).
The inhibition of `CO[C@]12CC[C@@]3(C[C@@H]1C(C)(C)O)[C@H]1Cc4ccc(O)c5c4[C@@]3(CCN1CC1CC1)[C@H]2O5` is reported as 6% (Cytochrome P450 1A2 (CYP1A2, Homo sapiens, UniProt P05177); human liver microsomes; 10 µM).
`C[C@H](Cc1ccc(O)c(O)c1)[C@@H](C)Cc1ccc(O)c(O)c1`: “total amount permeated” 30.4 ± 2.47 µg (human skin; 3% solution, 8 h, skin UV-treated 10 min).
`Oc1ccc(C2NCCc3c2[nH]c2ccc(Cl)cc32)cc1O` (centres unmarked) has a particle size of 1440 nm (dynamic light scattering; assay buffer; 40 µM, without Tween 20).
For `[N-]=[N+]=NCCCCCCCC(=O)O`, the growth reduction was ≤ 50% (Escherichia coli; concentration not given).

Repeated from above:
`CCOc1ccc2cc(-c3nn(CC4CCN(C)CC4)c4ncnc(N)c34)ccc2n1` gave an IC50 of > 100 µM (Cytochrome P450 3A4 (CYP3A4, Homo sapiens, UniProt P08684); inhibitor).
With `Cc1ccc2nc(-c3ccc4nc(-c5ccc(NC(=O)c6cccnc6)cc5)sc4c3)sc2c1S(=O)(=O)O` the solubility was > 110 µM (MOPS buffer, DMSO 2%; pH 6.5).
